Measurements gathered from unrelated publications.
Compare with care: the assays were run in different laboratories. ± marks the error that the study gave.
Adhesin FmlH lectin domain: Adhesin FmlH, lectin domain (Escherichia coli, UniProt Q1RBS0)
mrcB: Penicillin-binding protein 1B (mrcB, Escherichia coli K-12, UniProt P02919)
Sequence of UniProt P02919 (whole entry, looked up): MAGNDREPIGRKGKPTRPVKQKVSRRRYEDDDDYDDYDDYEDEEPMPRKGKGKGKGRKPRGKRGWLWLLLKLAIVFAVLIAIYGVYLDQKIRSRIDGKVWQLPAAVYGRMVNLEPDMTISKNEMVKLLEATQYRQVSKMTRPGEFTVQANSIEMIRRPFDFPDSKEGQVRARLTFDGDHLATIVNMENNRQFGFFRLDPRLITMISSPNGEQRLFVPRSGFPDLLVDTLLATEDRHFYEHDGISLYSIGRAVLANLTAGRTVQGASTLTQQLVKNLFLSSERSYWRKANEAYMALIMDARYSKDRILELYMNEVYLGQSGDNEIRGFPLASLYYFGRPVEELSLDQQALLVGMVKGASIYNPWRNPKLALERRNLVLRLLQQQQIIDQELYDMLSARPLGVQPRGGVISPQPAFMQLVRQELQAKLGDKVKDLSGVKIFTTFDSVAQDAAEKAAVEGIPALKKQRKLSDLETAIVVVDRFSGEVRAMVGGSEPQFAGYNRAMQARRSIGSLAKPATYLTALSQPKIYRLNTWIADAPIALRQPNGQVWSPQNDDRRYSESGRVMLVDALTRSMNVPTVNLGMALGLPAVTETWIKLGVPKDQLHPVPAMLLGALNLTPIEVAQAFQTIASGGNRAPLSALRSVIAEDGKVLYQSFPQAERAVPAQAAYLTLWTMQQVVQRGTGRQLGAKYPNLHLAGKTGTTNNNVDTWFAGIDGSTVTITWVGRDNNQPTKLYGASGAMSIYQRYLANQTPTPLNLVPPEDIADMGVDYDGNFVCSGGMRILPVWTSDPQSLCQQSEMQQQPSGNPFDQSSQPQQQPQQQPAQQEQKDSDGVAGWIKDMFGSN
CDK6 with cyclin D3: Cyclin-dependent kinase 6, with cyclin D3 (CDK6, Homo sapiens, UniProt Q00534)
Sequence of UniProt Q00534 (whole entry, looked up): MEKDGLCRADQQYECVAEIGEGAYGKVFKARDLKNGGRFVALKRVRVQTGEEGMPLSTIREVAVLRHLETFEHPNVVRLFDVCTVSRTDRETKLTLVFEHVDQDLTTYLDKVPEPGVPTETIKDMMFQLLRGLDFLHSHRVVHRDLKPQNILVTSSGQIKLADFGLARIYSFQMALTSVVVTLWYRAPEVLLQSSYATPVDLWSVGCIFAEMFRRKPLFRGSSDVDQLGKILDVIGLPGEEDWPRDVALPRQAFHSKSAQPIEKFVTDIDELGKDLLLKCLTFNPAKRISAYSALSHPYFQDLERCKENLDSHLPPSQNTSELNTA
ACE: Angiotensin-converting enzyme (ACE, Homo sapiens, UniProt P12821)
Sequence of UniProt P12821 (whole entry, looked up): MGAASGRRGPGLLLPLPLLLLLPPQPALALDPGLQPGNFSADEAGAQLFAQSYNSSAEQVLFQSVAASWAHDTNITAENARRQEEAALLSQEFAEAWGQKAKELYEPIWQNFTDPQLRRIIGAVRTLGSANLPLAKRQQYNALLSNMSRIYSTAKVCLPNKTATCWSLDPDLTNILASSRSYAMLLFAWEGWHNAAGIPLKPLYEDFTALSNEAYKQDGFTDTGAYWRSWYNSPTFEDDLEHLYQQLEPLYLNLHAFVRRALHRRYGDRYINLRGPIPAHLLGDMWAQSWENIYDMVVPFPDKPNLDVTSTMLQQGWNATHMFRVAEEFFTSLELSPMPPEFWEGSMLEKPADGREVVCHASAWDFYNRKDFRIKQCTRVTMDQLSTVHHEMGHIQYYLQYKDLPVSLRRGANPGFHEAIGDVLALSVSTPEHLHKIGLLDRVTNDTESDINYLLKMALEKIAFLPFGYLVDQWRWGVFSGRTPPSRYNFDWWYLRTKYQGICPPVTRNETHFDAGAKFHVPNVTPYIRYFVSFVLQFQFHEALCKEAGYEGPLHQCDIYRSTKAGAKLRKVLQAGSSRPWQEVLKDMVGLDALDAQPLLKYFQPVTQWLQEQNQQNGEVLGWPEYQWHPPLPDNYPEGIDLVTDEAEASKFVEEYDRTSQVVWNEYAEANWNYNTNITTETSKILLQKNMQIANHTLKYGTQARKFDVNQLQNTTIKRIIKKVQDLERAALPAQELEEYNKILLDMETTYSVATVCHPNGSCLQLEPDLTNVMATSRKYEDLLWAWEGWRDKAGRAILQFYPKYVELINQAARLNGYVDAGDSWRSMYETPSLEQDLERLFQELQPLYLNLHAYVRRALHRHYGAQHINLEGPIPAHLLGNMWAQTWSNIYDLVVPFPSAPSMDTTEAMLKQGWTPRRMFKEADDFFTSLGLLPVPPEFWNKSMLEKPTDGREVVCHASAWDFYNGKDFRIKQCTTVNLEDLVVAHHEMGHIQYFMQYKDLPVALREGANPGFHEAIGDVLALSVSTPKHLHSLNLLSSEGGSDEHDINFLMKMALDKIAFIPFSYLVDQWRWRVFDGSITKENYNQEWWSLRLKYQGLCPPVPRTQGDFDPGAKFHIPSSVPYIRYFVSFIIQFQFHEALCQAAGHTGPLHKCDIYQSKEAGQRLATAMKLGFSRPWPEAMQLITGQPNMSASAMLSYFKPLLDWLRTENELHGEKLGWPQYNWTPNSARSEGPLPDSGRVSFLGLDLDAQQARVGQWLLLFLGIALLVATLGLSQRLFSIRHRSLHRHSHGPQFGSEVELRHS
ST14: Suppressor of tumorigenicity 14 protein (ST14, Homo sapiens, UniProt Q9Y5Y6)
Sequence of UniProt Q9Y5Y6 (whole entry, looked up): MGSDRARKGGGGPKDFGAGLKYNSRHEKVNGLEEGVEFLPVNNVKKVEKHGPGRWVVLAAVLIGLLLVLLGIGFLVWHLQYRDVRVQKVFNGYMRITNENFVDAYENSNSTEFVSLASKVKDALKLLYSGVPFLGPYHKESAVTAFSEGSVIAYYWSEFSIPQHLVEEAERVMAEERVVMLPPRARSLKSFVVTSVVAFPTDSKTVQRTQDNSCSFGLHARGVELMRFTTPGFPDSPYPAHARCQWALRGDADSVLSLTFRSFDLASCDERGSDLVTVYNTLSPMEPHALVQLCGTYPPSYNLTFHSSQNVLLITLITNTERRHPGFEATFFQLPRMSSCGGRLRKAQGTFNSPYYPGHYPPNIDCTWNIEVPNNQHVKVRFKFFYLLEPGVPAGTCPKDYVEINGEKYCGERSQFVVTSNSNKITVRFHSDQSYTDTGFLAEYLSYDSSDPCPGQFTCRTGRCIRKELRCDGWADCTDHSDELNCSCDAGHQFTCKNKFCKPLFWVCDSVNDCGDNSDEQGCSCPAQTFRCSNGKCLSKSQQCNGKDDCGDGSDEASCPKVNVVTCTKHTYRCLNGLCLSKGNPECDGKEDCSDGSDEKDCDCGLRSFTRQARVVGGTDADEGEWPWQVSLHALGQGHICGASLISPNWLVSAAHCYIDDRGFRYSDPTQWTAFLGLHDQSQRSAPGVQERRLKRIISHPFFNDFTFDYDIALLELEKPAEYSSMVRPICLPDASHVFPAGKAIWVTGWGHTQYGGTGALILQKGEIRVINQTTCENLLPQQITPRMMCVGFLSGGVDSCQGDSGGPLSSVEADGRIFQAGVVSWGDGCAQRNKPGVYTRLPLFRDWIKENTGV
Sequence of UniProt O89000 (whole entry, looked up): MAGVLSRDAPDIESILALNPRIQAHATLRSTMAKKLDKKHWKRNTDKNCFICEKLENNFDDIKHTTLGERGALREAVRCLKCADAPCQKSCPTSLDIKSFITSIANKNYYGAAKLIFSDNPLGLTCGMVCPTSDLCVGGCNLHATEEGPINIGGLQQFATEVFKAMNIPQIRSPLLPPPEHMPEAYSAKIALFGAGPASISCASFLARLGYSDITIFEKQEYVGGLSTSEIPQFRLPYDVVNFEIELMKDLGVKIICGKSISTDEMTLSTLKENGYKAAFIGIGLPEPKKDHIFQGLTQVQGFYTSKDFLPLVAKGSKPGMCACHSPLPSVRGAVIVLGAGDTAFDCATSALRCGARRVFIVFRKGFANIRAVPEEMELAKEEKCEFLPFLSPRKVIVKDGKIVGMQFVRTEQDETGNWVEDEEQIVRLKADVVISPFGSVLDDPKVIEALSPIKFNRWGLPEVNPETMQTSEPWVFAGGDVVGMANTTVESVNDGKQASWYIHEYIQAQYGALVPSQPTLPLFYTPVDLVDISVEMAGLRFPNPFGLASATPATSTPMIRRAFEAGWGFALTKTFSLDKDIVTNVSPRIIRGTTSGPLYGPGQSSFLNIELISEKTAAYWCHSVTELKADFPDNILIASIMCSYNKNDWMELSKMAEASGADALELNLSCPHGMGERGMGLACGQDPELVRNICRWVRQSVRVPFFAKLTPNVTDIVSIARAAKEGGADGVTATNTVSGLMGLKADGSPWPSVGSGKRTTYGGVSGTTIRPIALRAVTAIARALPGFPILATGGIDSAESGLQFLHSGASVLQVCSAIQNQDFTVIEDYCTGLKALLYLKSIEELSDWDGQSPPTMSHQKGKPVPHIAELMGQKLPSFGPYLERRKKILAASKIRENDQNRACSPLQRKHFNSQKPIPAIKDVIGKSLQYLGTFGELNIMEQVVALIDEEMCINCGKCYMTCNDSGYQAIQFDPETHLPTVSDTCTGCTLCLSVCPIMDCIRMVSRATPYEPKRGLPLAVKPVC
Sequence of UniProt O70528 (whole entry, looked up): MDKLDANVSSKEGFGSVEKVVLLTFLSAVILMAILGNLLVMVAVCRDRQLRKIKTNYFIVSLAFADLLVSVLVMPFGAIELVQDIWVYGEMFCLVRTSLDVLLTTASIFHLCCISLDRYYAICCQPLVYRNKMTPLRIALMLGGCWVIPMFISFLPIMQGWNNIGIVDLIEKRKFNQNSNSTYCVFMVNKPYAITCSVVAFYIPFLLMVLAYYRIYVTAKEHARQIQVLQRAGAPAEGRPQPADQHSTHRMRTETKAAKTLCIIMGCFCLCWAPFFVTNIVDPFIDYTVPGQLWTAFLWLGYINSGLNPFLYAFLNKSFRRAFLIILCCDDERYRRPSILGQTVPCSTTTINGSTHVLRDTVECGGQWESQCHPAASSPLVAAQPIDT
Sequence of UniProt P06493 (whole entry, looked up): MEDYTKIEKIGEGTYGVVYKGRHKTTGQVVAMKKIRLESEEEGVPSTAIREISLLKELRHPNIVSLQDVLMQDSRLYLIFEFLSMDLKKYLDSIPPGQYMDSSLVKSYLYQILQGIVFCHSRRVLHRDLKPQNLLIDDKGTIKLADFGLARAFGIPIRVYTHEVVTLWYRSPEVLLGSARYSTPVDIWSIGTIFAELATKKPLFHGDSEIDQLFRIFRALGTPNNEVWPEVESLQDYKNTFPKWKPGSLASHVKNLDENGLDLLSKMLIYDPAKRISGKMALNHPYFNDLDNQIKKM

SMILES	target	test	test system	conditions	inhibition
CC(=O)N[C@H]1[C@@H](Oc2ccc([N+](=O)[O-])cc2)O[C@H](CO)[C@H](O)[C@@H]1O	Adhesin FmlH lectin domain	binding to desialylated mucin, ELISA competition	UPEC UTI89	100 µM	82%
CCCCc1ccc(N2C(=O)/C(=N\NC(=N)N)c3cc([N+](=O)[O-])ccc32)cc1	mrcB	enzyme activity, inhibitor, HPLC	–	50 µM	0%
CC(C)C[C@H](NC(=O)[C@@H]1CCCN1C(=O)[C@@H]1CCCN1C(=O)[C@H](CC(N)=O)NC(=O)[C@@H](N)Cc1ccc(Cl)c(Cl)c1)C(=O)N[C@@H](Cc1c[nH]cn1)C(=O)N[C@@H](CO)C(=O)N[C@H](C(=O)N[C@@H](C)C(=O)O)[C@@H](C)OP(=O)(O)O	Serine/threonine-protein kinase PLK2 (PLK2, Homo sapiens, UniProt Q9NYY3)	enzyme activity, inhibitor	–	10 µM	8.21%
CC(C)Cn1cc(-c2nc(Nc3ccc(OCCCCCCC(=O)NO)cc3)ncc2F)nn1	CDK6 with cyclin D3	enzyme activity, inhibitor, TR-FRET	–	5 µM	16.2%
COc1ccc2nc3cc(Cl)ccc3c(NCCCCNc3nc(N)nc(N)n3)c2c1	Muscleblind-like protein 1, with (CCUG)6 RNA (Homo sapiens, UniProt Q9NR56)	MBNL1-RNA binding, gel mobility shift	–	up to 250 µM, added: (CCUG)6 RNA	no inhibition
CC[C@H](C)[C@H](NC(=O)[C@@H](N)C(C)C)C(=O)N[C@@H](Cc1ccc(O)cc1)C(=O)NCC(=O)N1CCC[C@H]1C(=O)N[C@@H](CO)C(=O)N[C@H](C(=O)N[C@@H](Cc1ccccc1)C(=O)O)C(C)C	ACE	enzyme activity, inhibitor, HPLC	–	270 µg/mL	69.5%
Nc1ccccc1NC(=O)c1ccc(Nc2nccc(-c3cn(C4CCCCC4)nn3)n2)cc1	CDK6 with cyclin D3	enzyme activity, inhibitor, TR-FRET	–	50 nM	0.75%
CC(=O)Nc1ccc(F)cc1-c1ccncc1	Uridine nucleoside ribohydrolase (Trichomonas vaginalis, UniProt A2FTT0)	enzyme activity, jump-dilution 19F NMR	–	200 µM, 10-fold dilution	54%
CCCCCCN1C(=O)/C(=N\NC(=N)N)c2cc(C)ccc21	mrcB	enzyme activity, inhibitor, HPLC	–	50 µM	0%
CC(C)Cn1cc(-c2ccnc(Nc3ccc(C(=O)Nc4ccccc4N)cc3)n2)nn1	CDK6 with cyclin D3	enzyme activity, inhibitor, TR-FRET	–	5 µM	3.55%
CC(=O)NCC(=O)N[C@@H](CC(=O)O)C(=O)N[C@@H](Cc1ccc(O)cc1)C(=O)N[C@@H](CO)C(=O)N[C@@H](Cc1c[nH]cn1)C(=O)N[C@H]1CSSC[C@@H](C(=O)N[C@H](C(=O)N[C@@H](Cc2ccc(O)cc2)C(=O)N2CCC[C@H]2C(=O)N[C@@H](CC(=O)O)C(=O)N2CCC[C@H]2C(=O)N[C@@H](CCC(=O)O)C(=O)NCC(=O)NCC(=O)NCC(N)=O)[C@@H](C)O)NC(=O)[C@H](CCCCN)NC(=O)[C@H](Cc2c[nH]c3ccccc23)NC(=O)[C@H](Cc2c[nH]c3ccccc23)NC(=O)[C@@H]2CCCN2C(=O)[C@H](Cc2ccc(O)cc2)NC(=O)[C@H](Cc2ccc(O)cc2)NC(=O)[C@H](CCCNC(=N)N)NC(=O)[C@H](CC(C)C)NC(=O)[C@@H]2CCCN2C(=O)[C@H](CO)NC1=O	ACE	enzyme activity, inhibitor, fluorescence	–	30 µM	14%
CC1(C)SC(C(CCc2ccccc2)B(O)O)N[C@H]1C(=O)O (some centres unmarked)	D-alanyl-D-alanine carboxypeptidase DacC (dacC, Bacillus subtilis, UniProt P39844)	enzyme activity, inhibitor	–	concentration not given	no inhibition
Cc1c(C)c2ccc(O[C@@H]3O[C@H](CO)[C@H](O)[C@H](O)[C@H]3O)cc2oc1=O	Adhesin FmlH lectin domain	binding to desialylated mucin, ELISA competition	UPEC UTI89	100 µM	89%
COC(CO)c1ccc(O)c(O)c1 (centres unmarked)	alpha-glucosidase Saccharomyces cerevisiae	–	–	1000 µM, added: sucrose	< 10%
O=[N+]([O-])c1ccc(O[C@@H]2O[C@H](CO)[C@H](O)[C@H](O)[C@H]2O)cc1	Adhesin FmlH lectin domain	binding to desialylated mucin, ELISA competition	UPEC UTI89	100 µM	78%
CCCCc1ccc(N2C(=O)/C(=N\NC(=N)N)c3cc(F)ccc32)cc1	mrcB	enzyme activity, inhibitor, HPLC	–	50 µM	14%
OC[C@H]1O[C@@H](Oc2ccc3ccccc3c2)[C@H](O)[C@@H](O)[C@H]1O	Adhesin FmlH lectin domain	binding to desialylated mucin, ELISA competition	UPEC UTI89	100 µM	79%
O=[N+]([O-])c1ccc(Cn2cc(Cn3cc(CO)nn3)nn2)cc1	Pleckstrin homology domain-containing family A member 1, PH domain (Homo sapiens, UniProt Q9HB21)	PI(3,4)P2 binding, competitive SPR	–	5 µM, PH domain 500 nM	21 ± 2%

SMILES	target	test	test system	conditions	inhibition
CCOCn1cc(F)c(=O)n(C(=O)c2cccc(C(=O)Oc3cc(OC(=O)c4cc(OC(=O)CC)nc(OC(=O)CC)c4)c(Cl)cn3)c2)c1=O	Dihydropyrimidine dehydrogenase [NADP(+)] (Dpyd, Rattus norvegicus, UniProt O89000)	5-FU degradation, inhibitor	heat-denatured rat liver extract	concentration not given	no inhibition
CC(C)Cn1cc(-c2ccnc(Nc3ccc(OCCCCCCC(=O)NO)cc3)n2)nn1	CDK6 with cyclin D3	enzyme activity, inhibitor, TR-FRET	–	5 µM	9.78%
CCCCCCCCN1C(=O)/C(=N\NC(=N)N)c2cc(C)ccc21	mrcB	enzyme activity, inhibitor, HPLC	–	50 µM	71%
NCc1ccc(NC(=O)c2ccc3ccccc3c2O)cc1	ST14	enzyme activity, inhibitor	–	10 µM	< 20%
Nc1ccccc1NC(=O)c1ccc(Nc2nccc(-c3cn(C4CCCC4)nn3)n2)cc1	CDK6 with cyclin D3	enzyme activity, inhibitor, TR-FRET	–	5 µM	3.2%
OC[C@H]1O[C@@H](Oc2cccc3cccnc23)[C@H](O)[C@@H](O)[C@H]1O	Adhesin FmlH lectin domain	binding to desialylated mucin, ELISA competition	UPEC UTI89	100 µM	95%
O=C(CCCCCCN1CCN(c2ccc(Nc3ncc(F)c(-c4cn(C5CCCC5)nn4)n3)cc2)CC1)NO	CDK6 with cyclin D3	enzyme activity, inhibitor, TR-FRET	–	50 nM	9.49%
CC(C)C[C@H](NC(=O)[C@H](CO)NC(=O)[C@H](CCC(=O)O)NC(=O)CNC(=O)[C@H](C)NC(=O)OCc1ccccc1)C(=O)N[C@@H](Cc1ccc(O)cc1)C(=O)N[C@@H](CCC(=O)O)C(N)=O	Adenomatous polyposis coli protein, with Asef (APC, Homo sapiens, UniProt P25054)	binding, fluorescence polarization competition	–	100 µM	97.1 ± 0.5%
CCCCCCCCCCCCCCN1C(=O)/C(=N\NC(=N)N)c2cc(C)ccc21	mrcB	enzyme activity, inhibitor, HPLC	–	50 µM	100%
CC(C)C[C@H](NC(=O)[C@@H](NC(=O)[C@H](CCC(N)=O)NC(=O)CNC(=O)[C@H](CO)NC(=O)[C@H](Cc1ccccc1)NC(=O)[C@@H](N)CC(C)C)C(C)C)C(=O)O	ACE	enzyme activity, inhibitor, HPLC	–	1330 µg/mL	71.4%
C[C@@H](N)C1CCN(S(=O)(=O)c2cccc3c(=O)[nH]ccc23)CC1	Protein kinase C epsilon type (PRKCE, Homo sapiens, UniProt Q02156)	cell-free assay, competition with immobilised ligand	–	10 µM	> 95%
Cc1ccc(O[C@@H]2O[C@H](CO)[C@H](O)[C@H](O)[C@H]2O)cc1	Adhesin FmlH lectin domain	binding to desialylated mucin, ELISA competition	UPEC UTI89	100 µM	86%
C#CCSc1nc(Sc2nnnn2-c2ccccc2)c2nnn(Cc3ccccc3Cl)c2n1	Cyclin-dependent kinase 1, with cyclin B (CDK1, Homo sapiens, UniProt P06493)	enzyme activity, inhibitor	–	10 µM	< 15%
Cc1sc2cc(Cl)ccc2c1-c1ccc(N2CCO[C@H](CNC3CCC3)C2)c(C(=O)O)c1	5-hydroxytryptamine receptor 4 (HTR4, Cavia porcellus, UniProt O70528)	radioligand binding	guinea pig	10 µM	73.5%
COc1cc(C(=O)NC2CCC(N3CCN(CC4CCC5(CCCC5)C4)CC3)CC2)c(F)cc1Nc1ncc2c(n1)N(C1CCCC1(F)F)CC(F)(F)C(=O)N2C (centres unmarked)	Fibroblast growth factor receptor 3 (FGFR3, Homo sapiens, UniProt P22607)	cell-free assay, TR-FRET	–	10 µM	5.51%
Cc1ccc(C(=O)Nc2ccc(CN)cc2)c(O)c1	ST14	enzyme activity, inhibitor	–	10 µM	< 20%
CC(C)Oc1cccc(NC(=O)CCCN2C(=O)c3ccccc3C2=O)c1	Indole-3-acetic acid-amido synthetase GH3.15 (GH3.15, Arabidopsis thaliana, UniProt Q8GZ29)	IBA-Gln formation, inhibitor	–	concentration not given	no inhibition
